Results of several laboratories.
B1: TFC8 1-588 (Saccharomyces cerevisiae, UniProt Q12308); chain MKLLKDLLVDRKEFEDWKNNLTWARDGTLYLTTFPDISIGQPKYAKDINCNSKNLFHVKEFPLEFENKLDFELAQQNGLLNSQPVCYPRVCKPSPIDDWMAVLSNNGNVSVFKDNKMLTNLDSKGNLSSRTYHCFEWNPIESSIVVGNEDGELQFFSIRKNSENTPEFYFESSIRLSDAGSKDWVTHIVWYEDVLVAALSNNSVFSMTVSASSHQPVSRMIQNASRRKITDLKIVDYKVVLTCPGYVHKIDLKNYSISSLKTGSLENFHIIPLNHEKESTILLMSNKTSYKVLLEDELHVTADNIIAPYLEKKFKKWSTIWNEFNNYETTLVIHGISLSPDGYSIAIVYDMERVAFKYKIASEQSFNIMFAPLYHTWTISERAVGLAWYQTYQIYNQSLPKLPENFSMNKKLLNGNYPISLDFQSYLNALMKSEEMRIIMFLNMTIDKPSILSFLEALYEYAINKKSELTNSFDLACVLSIAAILKREAPIYNGTLLMKNSFLEETFNLESFTADPETVTSTTNNTWKRCGVTLLPILTTHVKICPVSKQRVIDIKRDDLNDYGWFTRGLLERFNEISVYCGTTLEVM
B2: DDC1/MEC3/RAD17 1-612 (Saccharomyces cerevisiae); chain 1 MSFKATITESGKQNIWFRAIYVLSTIQDDIKITVTTNELIAWSMNETDTTLCQVRFQKSFFEEYEFKPHEIVFGENGVQVIEDTYGNSHKLYSFRVNGRHLTTISRKPDGDGIKSFTIAVNNTSTCPESLANRLIVVIEMDSLIVKEYCPQFQPIKYDPIIINLKYKRRFLDVFGTAASDRNPQEPLDPKLLDVFTNTERELTSALFNEEVESDIRKRNQLTAADEINYICCNSTLLKNFLDNCNVNVTDEVKLEINVHRLSITAFTKAVYGKNNDLLRNALSMSNTISTLDLEHYCLFTTIEDEKQDKRSHSKRREHMKSIIFKLKDFKNFITIGPSWKTTQDGNDNISLWFCHPGDPILMQMQKPGVKLELVEVTDSNINDDILEGKFIKTAISGSKEEAGLKDNKESCESPLKSKTALKRENLPHSVAGTRNSPLKVSYLTPDNGSTVAKTYRNNTARKLFVEEQSQSTNYEQDKRFRQASSVHMNMNREQSFDIGTTHEVACPRNESNSLKRSIADICNETEDPTQQSTFAKRADTTVTWGKALPAADDEVSCSNIDRKGMLKKEKLKHMQGLLNSQNDTSNHKKQDNKEMEDGLGLTQVEKPRGIFD; chain 2 MKLKLIVNGCEAPDDYKLLRTTINTVASLRKTAILRFNSERLTIISTPKSSLNSSNNGTILRGDTGQLWCTIPHDVFRLYTVISARELNTITMECNCDSLLSVFKRYDRVMNQGSSSNMTIKLQSMPEWNTNNGTLSGGTAGGVDTTSKPNPICALGITFEEIVHTSGPNDAIVMNGGVDEHNGLPTTVGTGNLLASNKVIMHSFKVPVKLLFRAQDTRIQEPMINYIQLMMYKLPPISGEFGSAFHGFIRRVERYSNVNHIHLMGVKKKEHGNEGDDVELKIIVNELDWHLEICWNGPLDSVIQRQEGLTDNPSQNQHIDTDGRQEEGSLPIIEADKPMSSLYTNTRDREMEENIRYDEDLLRIEDSSIADTRGNIYTADTSGDTEFNDISVMVEKAEQESSSTHEVIIRCKDWKVCSKLYAAFEEVVLAISHDESCVFHCSLDRGSLEDSEDVEKPRERGQIIYYIARSKGL; chain 3 MRINSELANKFSASTVHLEHITTALSCLTPFGSKDDVLIFIDADGLSFVRENNHVIKIQLLLSRELFMSYSYRNETEDHMKLCVKINHILDSVSVMNRNSDDIVECTLSYDGHGSPFVLIFEDSFISERVEYSTYLIKDFDTNGLELDRERISFEAIIKGEALHSALKDLKEIGCKECYVYAKTEANDENVFALISKSQLGFSKIKLPSNRSILEKLQVFDGDSTTVIDGFAVIGFFDFTSFDKIRKSTKIASKVLFRMDVHGVLSVNILSQTDDVIITDTTRPSNNRPGSIRQLQLPKDYPGIVIEVCMLEKESIDEAAQTEIELLMETNELGNRNSFKKSTIRKRYGTDKGNETSNDNLLQLNGKKIKLPSEEENNKNRESEDEENHCKYPTKDIPIFF
B3: ELM1 421-640 (Saccharomyces cerevisiae, UniProt P32801); sequence looked up; chain SSSSVNPVRNEGPVRRFFGRLLTKKGKKKTSGKGKDKVLVSATSKVTPSIHIDEEPDKECFSTTVLRSSPDSSDYCSSLGEEAIQVTDFLDTFCRSNESLPNLTVNNDKQNSDMKTDRSESSSHSSLKIPTPIKAMIRLKSSPKENGNRTHINCSQDKPSSPLMDRTVGKRTVNNSGARKLAHSSNILNFKAYINSEDSDIRETVEDVKTYLNFADNGQI
B4: Gspt2 2-632 (Mus musculus, UniProt Q149F3); sequence looked up; chain DLGSSSDSAPDCWDQVDMEAPGSAPSGDGIAPAAMAAAEAAEAEAQRKHLSLAFSSQLNIHAKPFVPSVSAAEFVPSFLPGSAQPPAPTASSCDETCIGGAGEPEGKRMEWGAPVEPSKDGPLVSWEGSSSVVTMELSEPVVENGEVEMALEESWELKEVSEAKPEASLGDAGPPEESVKEVMEEKEEVRKSKSVSIPSGAPKKEHVNVVFIGHVDAGKSTIGGQIMFLTGMVDRRTLEKYEREAKEKNRETWYLSWALDTNQEERDKGKTVEVGRAYFETEKKHFTILDAPGHKSFVPNMIGGASQADLAVLVISARKGEFETGFEKGGQTREHAMLAKTAGVKYLIVLINKMDDPTVDWSSERYEECKEKLVPFLKKVGFSPKKDIHFMPCSGLTGANIKEQSDFCPWYTGLPFIPYLDSLPNFNRSIDGPIRLPIVDKYKDMGTVVLGKLESGSIFKGQQLVMMPNKHSVEVLGIVSDDAETDFVAPGENLKIRLKGIEEEEILPGFILCEPSNLCHSGRTFDVQIVIIEHKSIICPGYNAVLHIHTCIEEVEITALISLVDKKSGEKSKTRPRFVKQDQVCIARLRTAGTICLETFKDFPQMGRFTLRDEGKTIAIGKVLKLVPEKD
B5: EFR3B 716-787 (Homo sapiens, UniProt Q9Y2G0); chain VPAEEITYETLKKAIVDSVAVEEQERERRRQVVEKFQKAPFEEIAAHCGARASLLQSKLNQIFEITIRPPPS
B6: NOTCH3 EGF5-12 197-505 (Homo sapiens, UniProt Q9UM47); sequence looked up; chain PAVPCAPSPCRNGGTCRQSGDLTYDCACLPGFEGQNCEVNVDDCPGHRCLNGGTCVDGVNTYNCQCPPEWTGQFCTEDVDECQLQPNACHNGGTCFNTLGGHSCVCVNGWTGESCSQNIDDCATAVCFHGATCHDRVASFYCACPMGKTGLLCHLDDACVSNPCHEDAICDTNPVNGRAICTCPPGFTGGACDQDVDECSIGANPCEHLGRCVNTQGSFLCQCGRGYTGPRCETDVNECLSGPCRNQATCLDRIGQFTCICMAGFTGTYCEVDIDECQSSPCVNGGVCKDRVNGFSCTCPSGFSGSTCQ
B7: C9orf78 (Homo sapiens, UniProt Q9NZ63); sequence looked up; chain MPVVRKIFRRRRGDSESEEDEQDSEEVRLKLEETREVQNLRKRPNGVSAVALLVGEKVQEETTLVDDPFQMKTGGMVDMKKLKERGKDKISEEEDLHLGTSFSAETNRRDEDADMMKYIETELKKRKGIVEHEEQKVKPKNAEDCLYELPENIRVSSAKKTEEMLSNQMLSGIPEVDLGIDAKIKNIISTEDAKARLLAEQQNKKKDSETSFVPTNMAVNYVQHNRFYHEELNAPIRRNKEEPKARPLRVGDTEKPEPERSPPNRKRPANEKATDDYHYEKFKKMNRRY
B8: ND4L 1-89 (Yarrowia lipolytica, UniProt Q9B6D4); sequence looked up; chain MFIGTIILVLSFLGFVFNRRNIILAFICLETMLLGINLILLRNSVLFDDISGSLFAIVIIILAGVESAIGLSLLVSYYRLRGVINSYGI
B9: HDAC4 155-220 (Homo sapiens, UniProt P56524); sequence looked up; chain LKNKEKGKESAVASTEVKMKLQEFVLNKKKALAHRNLNHCISSDPRYWYGKTQHSSLDQSSPPQSG
B10: INF2 941-1249 (Homo sapiens, UniProt Q27J81-1); FITC label; chain KQQLAEEEARRPRGEDGKPVRKGPGKQEEVCVIDALLADIRKGFQLRKTARGRGDTDGGSKAASMDPPRATEPVATSNPAGDPVGSTRCPASEPGLDATTASESRGWDLVDAVTPGPQPTLEQLEEGGPRPLERRSSWYVDASDVLTTEDPQCPQPLEGAWPVTLGDAQALKPLKFSSNQPPAAGSSRQDAKDPTSLLGVLQAEADSTSEGLEDAVHSRGARPPAAGPGGDEDEDEEDTAPESALDTSLDKSFSEDAVTDSSGSGTLPRARGRASKGTGKRRKKRPSRSQEEVPPDSDDNKTKKLCVIQ
B11: COX5A (Saccharomyces cerevisiae, UniProt P00424); sequence looked up; chain AQTHALSNAAVMDLQSRWENMPSTEQQDIVSKLSERQKLPWAQLTEPEKQAVWYISYGEWGPRRPVLNKGDSSFIAKGVAAGLLFSVGLFAVVRMAGGQDAKTMNKEWQLKSDEYLKSKNANPWGGYSQVQSK
B12: CDCA7 (Homo sapiens, UniProt Q9BWT1); sequence looked up; chain MDARRVPQKDLRVKKNLKKFRYVKLISMETSSSSDDSCDSFASDNFANTRLQSVREGCRTRSQCRHSGPLRVAMKFPARSTRGATNKKAESRQPSENSVTDSNSDSEDESGMNFLEKRALNIKQNKAMLAKLMSELESFPGSFRGRHPLPGSDSQSRRPRRRTFPGVASRRNPERRARPLTRSRSRILGSLDALPMEEEEEEDKYMLVRKRKTVDGYMNEDDLPRSRRSRSSVTLPHIIRPVEEITEEELENVCSNSREKIYNRSLGSTCHQCRQKTIDTKTNCRNPDCWGVRGQFCGPCLRNRYGEEVRDALLDPNWHCPPCRGICNCSFCRQRDGRCATGVLVYLAKYHGFGNVHAYLKSLKQEFEMQA
B13: OpcA C410S/C192S (Synechocystis sp. PCC 6803, UniProt P73720); sequence looked up; chain MGGKYQRHCPVRFHWSHCMSTTQAPPLVSLQAPKDVSLEAIESELAQIWQTSAQKEEGLIATRATTFSFLVYEPDRVQSLLAALGYYTGPIDGITGPRMTAAIKSAQKALGVTATGLSSPEFKQALQTAFETAHREGNLLSTAERITKPYSPDLEGSGIADTIAASNPCRIITLCPTAEDDQGVQAQLSAYSPIQKTHQNTLICCEYITLRGTSDALERIGGVITELMLPTLPKYVWWKASPEAEYGLFQRLLSHADMIIVDSSIFNNPEQDLLQLAQLVNKPEAIADLNWSRLAPWQELTAEAFDPPERRSAVGEIDQISIDYEKGNHAQALMYLGWVASRLQWTPVSYSYQPGVYEIHKIQFCAPNQRPIEAELAGLPLADTGQVLGDLISLKLGSTNTQAQCGTVLSSGTVGCMRMEAGGGAQNYRVQQVTALDDQNTEQLLGRQLQRWGRDALYDESMAIVLAILQLSQAG
Chain of UniProt O95931 (whole entry, unmodified, looked up): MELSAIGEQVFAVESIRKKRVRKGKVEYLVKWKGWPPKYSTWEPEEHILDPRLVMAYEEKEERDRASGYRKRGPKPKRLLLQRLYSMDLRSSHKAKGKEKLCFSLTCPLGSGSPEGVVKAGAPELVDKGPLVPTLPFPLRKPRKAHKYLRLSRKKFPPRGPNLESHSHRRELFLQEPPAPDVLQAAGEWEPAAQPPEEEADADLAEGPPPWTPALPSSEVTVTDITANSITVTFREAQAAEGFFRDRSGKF
Chain of UniProt Q02078 (whole entry, looked up): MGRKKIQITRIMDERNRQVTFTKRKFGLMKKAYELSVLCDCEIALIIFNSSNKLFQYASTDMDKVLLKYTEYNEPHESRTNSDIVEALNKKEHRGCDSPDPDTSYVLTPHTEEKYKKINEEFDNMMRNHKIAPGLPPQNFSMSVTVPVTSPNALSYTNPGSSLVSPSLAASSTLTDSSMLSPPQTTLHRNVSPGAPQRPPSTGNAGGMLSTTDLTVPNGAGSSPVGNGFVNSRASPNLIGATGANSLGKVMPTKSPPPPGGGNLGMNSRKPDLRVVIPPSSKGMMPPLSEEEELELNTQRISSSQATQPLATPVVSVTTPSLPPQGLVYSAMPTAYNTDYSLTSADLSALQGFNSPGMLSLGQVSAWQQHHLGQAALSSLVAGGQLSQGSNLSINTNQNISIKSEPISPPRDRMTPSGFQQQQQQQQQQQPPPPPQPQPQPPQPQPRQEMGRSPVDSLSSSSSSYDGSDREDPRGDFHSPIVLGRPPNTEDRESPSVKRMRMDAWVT
Chain of UniProt Q9B6E9 (whole entry, looked up): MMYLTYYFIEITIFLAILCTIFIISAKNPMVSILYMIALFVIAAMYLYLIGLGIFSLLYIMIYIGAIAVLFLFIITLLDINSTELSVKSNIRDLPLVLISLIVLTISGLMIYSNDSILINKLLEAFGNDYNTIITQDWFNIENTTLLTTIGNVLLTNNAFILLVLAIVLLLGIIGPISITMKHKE
Chain of UniProt O15085 (whole entry, unmodified, looked up): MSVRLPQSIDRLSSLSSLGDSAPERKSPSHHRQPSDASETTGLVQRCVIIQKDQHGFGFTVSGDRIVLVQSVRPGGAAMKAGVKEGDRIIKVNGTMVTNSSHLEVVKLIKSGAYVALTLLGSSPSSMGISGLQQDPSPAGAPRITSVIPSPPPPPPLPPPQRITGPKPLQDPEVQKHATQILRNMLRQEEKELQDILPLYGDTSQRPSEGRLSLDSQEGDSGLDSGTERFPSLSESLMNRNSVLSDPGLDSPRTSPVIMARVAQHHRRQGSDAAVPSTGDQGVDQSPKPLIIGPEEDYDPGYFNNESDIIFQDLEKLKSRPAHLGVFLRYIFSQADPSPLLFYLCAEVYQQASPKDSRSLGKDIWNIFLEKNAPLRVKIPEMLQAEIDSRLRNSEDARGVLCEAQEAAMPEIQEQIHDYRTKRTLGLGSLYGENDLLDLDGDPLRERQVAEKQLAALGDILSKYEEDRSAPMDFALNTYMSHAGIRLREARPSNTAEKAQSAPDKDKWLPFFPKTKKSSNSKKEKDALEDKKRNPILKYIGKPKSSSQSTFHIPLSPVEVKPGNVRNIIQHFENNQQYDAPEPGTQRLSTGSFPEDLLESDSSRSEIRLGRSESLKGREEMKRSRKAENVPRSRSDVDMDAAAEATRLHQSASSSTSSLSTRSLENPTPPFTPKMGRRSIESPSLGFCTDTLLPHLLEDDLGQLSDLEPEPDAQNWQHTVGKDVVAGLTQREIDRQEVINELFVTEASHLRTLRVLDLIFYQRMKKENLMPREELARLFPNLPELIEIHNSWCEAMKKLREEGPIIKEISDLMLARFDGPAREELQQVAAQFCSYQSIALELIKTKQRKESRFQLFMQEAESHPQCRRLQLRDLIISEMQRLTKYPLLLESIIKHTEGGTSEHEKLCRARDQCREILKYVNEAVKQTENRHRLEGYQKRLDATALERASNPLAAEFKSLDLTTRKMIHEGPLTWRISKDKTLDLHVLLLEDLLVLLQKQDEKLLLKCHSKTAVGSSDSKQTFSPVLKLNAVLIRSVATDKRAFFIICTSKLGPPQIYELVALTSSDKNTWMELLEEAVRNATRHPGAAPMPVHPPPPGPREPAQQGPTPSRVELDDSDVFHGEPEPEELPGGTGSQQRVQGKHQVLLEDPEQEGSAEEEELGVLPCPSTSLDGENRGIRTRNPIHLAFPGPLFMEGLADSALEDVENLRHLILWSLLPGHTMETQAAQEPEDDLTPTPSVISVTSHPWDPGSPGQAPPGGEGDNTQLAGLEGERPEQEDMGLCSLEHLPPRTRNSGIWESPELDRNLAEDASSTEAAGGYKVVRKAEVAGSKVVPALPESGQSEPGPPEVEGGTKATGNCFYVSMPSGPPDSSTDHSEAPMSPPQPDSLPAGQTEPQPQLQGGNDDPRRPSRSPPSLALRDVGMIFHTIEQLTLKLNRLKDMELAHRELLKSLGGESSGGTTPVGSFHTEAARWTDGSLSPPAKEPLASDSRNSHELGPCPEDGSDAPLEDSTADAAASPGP
Chain of UniProt Q9NR61 (whole entry, unmodified, looked up): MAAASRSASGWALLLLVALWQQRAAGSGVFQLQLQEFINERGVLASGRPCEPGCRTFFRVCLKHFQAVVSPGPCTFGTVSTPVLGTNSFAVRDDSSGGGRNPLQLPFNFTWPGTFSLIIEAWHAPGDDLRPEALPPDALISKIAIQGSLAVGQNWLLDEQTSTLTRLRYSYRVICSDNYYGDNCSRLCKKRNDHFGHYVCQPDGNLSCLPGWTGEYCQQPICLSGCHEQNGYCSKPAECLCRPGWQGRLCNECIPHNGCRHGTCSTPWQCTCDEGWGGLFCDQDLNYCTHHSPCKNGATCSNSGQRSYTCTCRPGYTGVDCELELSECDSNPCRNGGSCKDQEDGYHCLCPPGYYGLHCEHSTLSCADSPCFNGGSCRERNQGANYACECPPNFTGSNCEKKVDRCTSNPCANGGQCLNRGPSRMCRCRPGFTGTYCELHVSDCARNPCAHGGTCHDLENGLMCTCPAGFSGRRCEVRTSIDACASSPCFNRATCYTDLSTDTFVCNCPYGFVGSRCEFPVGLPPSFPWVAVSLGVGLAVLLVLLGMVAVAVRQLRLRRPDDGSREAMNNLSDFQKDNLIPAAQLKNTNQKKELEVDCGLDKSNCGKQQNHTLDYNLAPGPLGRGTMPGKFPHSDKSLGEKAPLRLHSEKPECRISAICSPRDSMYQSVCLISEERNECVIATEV
Chain of UniProt P07256 (whole entry, looked up): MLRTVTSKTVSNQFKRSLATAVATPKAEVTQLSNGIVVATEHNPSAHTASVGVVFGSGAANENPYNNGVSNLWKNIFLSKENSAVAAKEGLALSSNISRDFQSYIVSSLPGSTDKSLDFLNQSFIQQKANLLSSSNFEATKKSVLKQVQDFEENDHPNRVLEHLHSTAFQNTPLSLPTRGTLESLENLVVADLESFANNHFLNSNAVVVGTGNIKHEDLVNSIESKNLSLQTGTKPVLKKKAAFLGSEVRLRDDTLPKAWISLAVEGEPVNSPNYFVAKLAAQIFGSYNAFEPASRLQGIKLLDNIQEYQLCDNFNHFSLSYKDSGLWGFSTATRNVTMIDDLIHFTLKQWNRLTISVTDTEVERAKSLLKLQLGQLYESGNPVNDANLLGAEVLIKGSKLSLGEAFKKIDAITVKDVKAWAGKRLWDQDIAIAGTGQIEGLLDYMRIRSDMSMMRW
Chain of UniProt Q14320 (whole entry, looked up): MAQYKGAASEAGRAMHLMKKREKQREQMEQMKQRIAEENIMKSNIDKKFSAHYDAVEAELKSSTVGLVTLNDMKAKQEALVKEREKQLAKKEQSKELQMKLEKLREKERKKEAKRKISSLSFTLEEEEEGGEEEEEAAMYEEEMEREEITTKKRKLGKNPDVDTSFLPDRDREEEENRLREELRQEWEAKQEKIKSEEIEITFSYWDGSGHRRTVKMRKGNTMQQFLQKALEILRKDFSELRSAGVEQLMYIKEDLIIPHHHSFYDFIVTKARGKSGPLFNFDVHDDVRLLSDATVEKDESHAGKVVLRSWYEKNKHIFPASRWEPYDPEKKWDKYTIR
Chain of UniProt Q9NRZ9 (whole entry, looked up): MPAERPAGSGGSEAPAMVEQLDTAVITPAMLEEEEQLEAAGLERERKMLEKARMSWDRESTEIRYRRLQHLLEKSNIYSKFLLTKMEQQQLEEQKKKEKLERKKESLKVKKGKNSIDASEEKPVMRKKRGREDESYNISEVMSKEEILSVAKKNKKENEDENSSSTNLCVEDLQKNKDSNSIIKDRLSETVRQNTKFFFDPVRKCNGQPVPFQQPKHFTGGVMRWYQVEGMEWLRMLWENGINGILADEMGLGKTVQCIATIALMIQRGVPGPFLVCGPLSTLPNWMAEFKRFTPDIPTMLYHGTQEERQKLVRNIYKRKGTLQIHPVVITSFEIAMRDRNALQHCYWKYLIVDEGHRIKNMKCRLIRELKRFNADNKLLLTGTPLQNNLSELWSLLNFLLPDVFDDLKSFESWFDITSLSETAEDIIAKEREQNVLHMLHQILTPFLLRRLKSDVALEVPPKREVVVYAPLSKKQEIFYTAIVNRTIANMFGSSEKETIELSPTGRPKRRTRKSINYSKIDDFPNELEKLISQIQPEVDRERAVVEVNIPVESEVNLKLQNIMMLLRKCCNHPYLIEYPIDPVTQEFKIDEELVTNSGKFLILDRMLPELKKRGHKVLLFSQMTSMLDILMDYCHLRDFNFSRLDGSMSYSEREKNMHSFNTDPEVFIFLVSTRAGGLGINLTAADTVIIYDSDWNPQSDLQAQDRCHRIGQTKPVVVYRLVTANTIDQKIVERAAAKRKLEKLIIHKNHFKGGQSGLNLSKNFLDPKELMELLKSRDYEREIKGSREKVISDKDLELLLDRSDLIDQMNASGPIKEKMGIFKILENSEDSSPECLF

ESPYQELQGQRSDVYSDLNT (TYROBP 88-107; phosphotyrosine)
binding (SYK (Homo sapiens, UniProt P43405); FIDA; peptide): binds

B1 (TFC8 1-588)
binding (TFC3 1-1160 (Saccharomyces cerevisiae, UniProt P34111); cryo-EM): binds

KKATQASQEY (H2AX residues 134-143 (Homo sapiens); pS139, fluorescein label)
binding (MCPH1 BRCT 639-835 (Homo sapiens, UniProt Q8NEM0); fluorescence polarisation; peptide): binds

ARHGEF40 (Homo sapiens, UniProt Q8TER5)
binding (ARHGEF11 Y885A (Homo sapiens, UniProt O15085); co-IP): binds

B2 (DDC1/MEC3/RAD17 1-612)
binding (RAD24/RFC2/RFC3/RFC4/RFC5 (Saccharomyces cerevisiae); cryo-EM): binds

B3 (ELM1 421-640)
binding (GIN4 (Saccharomyces cerevisiae, UniProt Q12263); pull-down): binds

B4 (Gspt2 2-632)
binding (UPF1 (Homo sapiens, UniProt Q92900); pull-down): binds

B5 (EFR3B 716-787)
binding (TTC7A/FAM126B 1-308; BLI): binds

B6 (NOTCH3 EGF5-12 197-505)
binding (DLL4 27-400 G28S/F107L/I143F/H194Y/L206P (Homo sapiens, UniProt Q9NR61); SPR): binds

ARTKQTARKSTGGKA (H3 peptide residues 1-x; K9me3, N-terminal fluorescein)
binding (CBX7 8-62 L49D/D50C (Homo sapiens, UniProt O95931); FP; peptide): binds

B7 (C9orf78)
binding (FAM50A (Homo sapiens, UniProt Q14320); pull-down): binds

B8 (ND4L 1-89)
binding (ND6 1-185 (Yarrowia lipolytica, UniProt Q9B6E9); cryo-EM): binds

B9 (HDAC4 155-220)
binding (MEF2A 1-95 (Homo sapiens, UniProt Q02078); SPR): binds

B10 (INF2 941-1249)
binding (INF2 1-420 (Homo sapiens, UniProt Q27J81); FP): binds

APPBP2 fragment (Homo sapiens) (sequence not shown)
binding (ELOB fragment (Homo sapiens); cryo-EM): binds

B11 (COX5A)
binding (COR1 mature (Saccharomyces cerevisiae, UniProt P07256); cryo-EM): binds

RQIVDAQAVCTRCKESADFWCFECEQLLCAKCFEAHQWFLKHEARPLAE (PML 120-168 (Homo sapiens, UniProt P29590); sequence looked up)
binding (UBE2I (Homo sapiens, UniProt P63279); SEC; not stated; 400 µM): binds

B12 (CDCA7)
binding (HELLS 1-814 (Homo sapiens, UniProt Q9NRZ9); SEC): binds

B13 (OpcA C410S/C192S)
binding (zwf 1-509 (Synechocystis sp. PCC 6803, UniProt P73411); BLI): binds

KESALRKQDLLLQFDPLLR (TACC3 to 568 550-568 S558D/Y560L/K562Q (Homo sapiens, UniProt Q9Y6A5); sequence looked up)
binding (CLTC 358-574 (Homo sapiens, UniProt Q00610); peptide array; peptide): binds

A few entries again:
B2 (DDC1/MEC3/RAD17 1-612)
binding (RAD24/RFC2/RFC3/RFC4/RFC5 (Saccharomyces cerevisiae); cryo-EM): binds
